Assay results pooled from the literature.
Parts stem from different laboratories: compare values within a part only.

Set 1 — method: universal PBM; form: double-stranded DNA, one strand shown; medium: in vitro; concentration: 600 nM; direction: higher = stronger binding
Target: Sal-like protein 4, full length isoform A (SALL4, Homo sapiens, UniProt Q9UJQ4, residues 1-1053)
UniProt Q9UJQ4, sequence (whole entry, looked up): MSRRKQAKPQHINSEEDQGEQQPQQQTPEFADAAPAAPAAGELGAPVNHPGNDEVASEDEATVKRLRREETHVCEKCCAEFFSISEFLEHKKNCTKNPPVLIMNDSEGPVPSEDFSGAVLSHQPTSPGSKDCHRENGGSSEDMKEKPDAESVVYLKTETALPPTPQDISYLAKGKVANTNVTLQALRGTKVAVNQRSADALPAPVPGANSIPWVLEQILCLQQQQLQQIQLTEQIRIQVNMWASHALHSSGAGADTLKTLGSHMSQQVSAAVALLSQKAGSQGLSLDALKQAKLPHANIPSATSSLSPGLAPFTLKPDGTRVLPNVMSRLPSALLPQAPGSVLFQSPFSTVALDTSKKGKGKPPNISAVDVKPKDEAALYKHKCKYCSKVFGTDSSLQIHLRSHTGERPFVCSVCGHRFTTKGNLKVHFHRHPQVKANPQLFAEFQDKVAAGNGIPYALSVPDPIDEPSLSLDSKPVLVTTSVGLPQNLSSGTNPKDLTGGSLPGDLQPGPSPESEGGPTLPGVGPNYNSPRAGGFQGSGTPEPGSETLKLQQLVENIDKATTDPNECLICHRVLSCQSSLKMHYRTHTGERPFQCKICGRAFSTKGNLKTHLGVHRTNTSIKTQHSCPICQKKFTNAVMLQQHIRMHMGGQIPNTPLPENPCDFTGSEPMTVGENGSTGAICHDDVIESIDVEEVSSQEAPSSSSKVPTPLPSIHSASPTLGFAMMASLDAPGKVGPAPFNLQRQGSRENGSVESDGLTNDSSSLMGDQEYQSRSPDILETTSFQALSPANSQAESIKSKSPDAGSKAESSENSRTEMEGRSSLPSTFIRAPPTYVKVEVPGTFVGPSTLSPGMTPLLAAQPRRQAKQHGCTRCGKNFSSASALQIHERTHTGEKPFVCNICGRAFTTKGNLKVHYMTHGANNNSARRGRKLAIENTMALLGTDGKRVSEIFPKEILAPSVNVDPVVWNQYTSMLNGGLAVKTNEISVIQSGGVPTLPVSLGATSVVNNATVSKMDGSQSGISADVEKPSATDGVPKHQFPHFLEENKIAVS
Notes: 8-mer, flanks averaged, mean of replicates
`ACTAAGTA` gave an E-score of 0.115.
For `GCCGATAC`, the E-score was -0.155.
`CTCAGCAA` gave an E-score of 0.142.
With `ACATGAGG` the E-score was 0.0345.
`AGACTTTC` gave an E-score of 0.0833.

Set 2 — method: RNA Bind-n-Seq; form: RNA; medium: in vitro; concentration: 200 nM; notes: whole 134-nt RNA, ends assumed; added: 150 mM LiCl; baseline: input library; direction: higher = stronger binding; library: 7-deaza-guanosine replaces G
Target: Fragile X messenger ribonucleoprotein 1, C-terminal low-complexity region (Fmr1, Mus musculus, UniProt P35922)
For `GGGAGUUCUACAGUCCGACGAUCAAGUCCUGUGCUACACAUCGUAUGUACCGAAUCGGAGGAAAAAAAGGUUUUUUUGGAAAGUAUUAUGUUACGCCGUUCGGAUCUGCACUUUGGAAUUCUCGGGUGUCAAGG`, the log2 enrichment was -2.18.
The log2 enrichment of `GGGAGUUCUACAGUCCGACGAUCGUCCUGUGCUACACAUCGUAUGUACCGAAUCAAAUUUAAAUUUUUAAAUUUUUUUAAAAAAGUAUUAUGUUACGCCGUUCGGAUCUGCACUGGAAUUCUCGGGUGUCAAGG` is reported as -2.76.
`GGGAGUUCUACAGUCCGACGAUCUGGCCCUGGUGGCAUGCGGGGAGGAAGAGGUAGCCUCAUGGAUCGUGGUGGUCCCGGUGGAAUGUUCAGAGGUGGCCGUGGUGGAGACAGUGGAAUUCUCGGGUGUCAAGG` gave a log2 enrichment of -0.119.
For `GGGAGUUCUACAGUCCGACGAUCCCUCAAGUCCUGUGCUACACAUCGUAUGUACCGAAUCGGGUGGUGGGUGGGGAAAGUAUUAUGUUACGCCGUUCGGAUCUGCACUUCCAGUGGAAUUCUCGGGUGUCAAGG`, the log2 enrichment was -0.301.
`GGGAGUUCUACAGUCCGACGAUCCUCAAGUCCUGUGCUACACAUCGUAUGUACCGAAUCGGGGUUGGGGUUGGUUGGAAAGUAUUAUGUUACGCCGUUCGGAUCUGCACUUCCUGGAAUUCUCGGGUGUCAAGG` has a log2 enrichment of -0.625.

Set 3 — method: protein-binding microarray; form: double-stranded DNA, one strand shown; medium: in vitro; concentration: 2200 nM top; notes: 60-bp whole probe; added: salmon DNA 0.4 mg/ml; baseline: random background probes; direction: higher = stronger binding
Target: Interferon regulatory factor 7, full length, phosphomimetic (IRF7, Homo sapiens, UniProt Q92985, residues 1-503, S471D/S472D/S475D/S476D/S477D/S483D/S484D/S487D)
Residues (chain): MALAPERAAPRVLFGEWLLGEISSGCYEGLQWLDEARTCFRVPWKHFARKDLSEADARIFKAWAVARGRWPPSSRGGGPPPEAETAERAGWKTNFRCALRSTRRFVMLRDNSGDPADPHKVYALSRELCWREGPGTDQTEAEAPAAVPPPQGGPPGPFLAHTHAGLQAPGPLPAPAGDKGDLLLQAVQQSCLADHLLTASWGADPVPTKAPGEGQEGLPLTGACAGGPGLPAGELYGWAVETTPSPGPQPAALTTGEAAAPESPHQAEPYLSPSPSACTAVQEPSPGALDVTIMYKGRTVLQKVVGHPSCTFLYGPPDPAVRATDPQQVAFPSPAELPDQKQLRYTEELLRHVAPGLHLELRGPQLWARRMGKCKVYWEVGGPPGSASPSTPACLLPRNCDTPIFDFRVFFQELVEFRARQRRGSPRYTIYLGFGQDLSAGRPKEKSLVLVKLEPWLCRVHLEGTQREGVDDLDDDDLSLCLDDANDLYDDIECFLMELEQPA
For `GCCTAGCACGACGGTATCGACAGTGGGGACGTGCTAGTCTTGATTCGCTTGACGCTGCTG`, “fitted relative affinity” read -0.395 z-score.
For `GCCTAGCACGACGGACTGGGTTTCGGGTCGTGCTAGGTCTTGATTCGCTTGACGCTGCTG`, “fitted relative affinity” read 3.63 z-score.
`GCCTAGCACTCAACCATCCTATGTAGAACTGTGCTAGTCTTGATTCGCTTGACGCTGCTG` — result for “fitted relative affinity”: 1.13 z-score.
`GCCTAGCACTCAAATTTGAGTCACTGACTGTGCTAGGTCTTGATTCGCTTGACGCTGCTG`: “fitted relative affinity” -0.235 z-score.

Mixed results
`PhoQ, residues 284 288 289 292 302 303 ASHLAV` has a fold induction of 3.01 (PhoP, residues 12 14 15 18 19 LHSVQ (Escherichia coli, UniProt P23836); Sort-seq, refers to: YFP reporter; E. coli; PhoQ-PhoP variant library, added: 10 µM Mg2+; baseline: high Mg2+ state, higher = stronger signaling).

For quick reference, copied from above (set 2):
For `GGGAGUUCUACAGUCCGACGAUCCCUCAAGUCCUGUGCUACACAUCGUAUGUACCGAAUCGGGUGGUGGGUGGGGAAAGUAUUAUGUUACGCCGUUCGGAUCUGCACUUCCAGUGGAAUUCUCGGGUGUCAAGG`, the log2 enrichment was -0.301.
The log2 enrichment of `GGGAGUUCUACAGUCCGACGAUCGUCCUGUGCUACACAUCGUAUGUACCGAAUCAAAUUUAAAUUUUUAAAUUUUUUUAAAAAAGUAUUAUGUUACGCCGUUCGGAUCUGCACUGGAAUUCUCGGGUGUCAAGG` is reported as -2.76.
